Measured values collected from several papers.
Numbered parts are unrelated; each lists some results of a single study. Several values in a cell are separate wells, animals, samples, runs or records.
UniProt Q06418, sequence (whole entry, looked up): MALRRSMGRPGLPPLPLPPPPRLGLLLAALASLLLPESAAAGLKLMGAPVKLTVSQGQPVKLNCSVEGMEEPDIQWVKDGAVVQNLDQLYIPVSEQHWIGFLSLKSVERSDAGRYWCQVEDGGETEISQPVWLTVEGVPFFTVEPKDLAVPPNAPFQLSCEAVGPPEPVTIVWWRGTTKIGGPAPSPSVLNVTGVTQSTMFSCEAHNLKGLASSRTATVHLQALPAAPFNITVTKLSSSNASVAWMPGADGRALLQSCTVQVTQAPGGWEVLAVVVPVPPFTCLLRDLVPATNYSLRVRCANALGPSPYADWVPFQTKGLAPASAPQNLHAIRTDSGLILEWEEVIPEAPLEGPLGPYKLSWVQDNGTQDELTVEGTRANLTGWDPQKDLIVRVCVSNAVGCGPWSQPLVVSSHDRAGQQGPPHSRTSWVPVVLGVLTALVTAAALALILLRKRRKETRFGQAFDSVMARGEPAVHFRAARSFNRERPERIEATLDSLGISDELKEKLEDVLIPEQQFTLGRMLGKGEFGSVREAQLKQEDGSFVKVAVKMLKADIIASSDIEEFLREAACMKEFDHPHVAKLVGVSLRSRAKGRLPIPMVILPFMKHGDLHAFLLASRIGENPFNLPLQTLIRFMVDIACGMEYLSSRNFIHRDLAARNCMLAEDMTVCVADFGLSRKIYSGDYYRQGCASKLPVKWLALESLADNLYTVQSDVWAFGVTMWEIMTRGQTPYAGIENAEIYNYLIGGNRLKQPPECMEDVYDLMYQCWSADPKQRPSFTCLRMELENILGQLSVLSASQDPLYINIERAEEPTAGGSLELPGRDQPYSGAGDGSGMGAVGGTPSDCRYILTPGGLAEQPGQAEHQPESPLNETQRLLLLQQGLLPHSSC
UniProt P35916, sequence (whole entry, looked up): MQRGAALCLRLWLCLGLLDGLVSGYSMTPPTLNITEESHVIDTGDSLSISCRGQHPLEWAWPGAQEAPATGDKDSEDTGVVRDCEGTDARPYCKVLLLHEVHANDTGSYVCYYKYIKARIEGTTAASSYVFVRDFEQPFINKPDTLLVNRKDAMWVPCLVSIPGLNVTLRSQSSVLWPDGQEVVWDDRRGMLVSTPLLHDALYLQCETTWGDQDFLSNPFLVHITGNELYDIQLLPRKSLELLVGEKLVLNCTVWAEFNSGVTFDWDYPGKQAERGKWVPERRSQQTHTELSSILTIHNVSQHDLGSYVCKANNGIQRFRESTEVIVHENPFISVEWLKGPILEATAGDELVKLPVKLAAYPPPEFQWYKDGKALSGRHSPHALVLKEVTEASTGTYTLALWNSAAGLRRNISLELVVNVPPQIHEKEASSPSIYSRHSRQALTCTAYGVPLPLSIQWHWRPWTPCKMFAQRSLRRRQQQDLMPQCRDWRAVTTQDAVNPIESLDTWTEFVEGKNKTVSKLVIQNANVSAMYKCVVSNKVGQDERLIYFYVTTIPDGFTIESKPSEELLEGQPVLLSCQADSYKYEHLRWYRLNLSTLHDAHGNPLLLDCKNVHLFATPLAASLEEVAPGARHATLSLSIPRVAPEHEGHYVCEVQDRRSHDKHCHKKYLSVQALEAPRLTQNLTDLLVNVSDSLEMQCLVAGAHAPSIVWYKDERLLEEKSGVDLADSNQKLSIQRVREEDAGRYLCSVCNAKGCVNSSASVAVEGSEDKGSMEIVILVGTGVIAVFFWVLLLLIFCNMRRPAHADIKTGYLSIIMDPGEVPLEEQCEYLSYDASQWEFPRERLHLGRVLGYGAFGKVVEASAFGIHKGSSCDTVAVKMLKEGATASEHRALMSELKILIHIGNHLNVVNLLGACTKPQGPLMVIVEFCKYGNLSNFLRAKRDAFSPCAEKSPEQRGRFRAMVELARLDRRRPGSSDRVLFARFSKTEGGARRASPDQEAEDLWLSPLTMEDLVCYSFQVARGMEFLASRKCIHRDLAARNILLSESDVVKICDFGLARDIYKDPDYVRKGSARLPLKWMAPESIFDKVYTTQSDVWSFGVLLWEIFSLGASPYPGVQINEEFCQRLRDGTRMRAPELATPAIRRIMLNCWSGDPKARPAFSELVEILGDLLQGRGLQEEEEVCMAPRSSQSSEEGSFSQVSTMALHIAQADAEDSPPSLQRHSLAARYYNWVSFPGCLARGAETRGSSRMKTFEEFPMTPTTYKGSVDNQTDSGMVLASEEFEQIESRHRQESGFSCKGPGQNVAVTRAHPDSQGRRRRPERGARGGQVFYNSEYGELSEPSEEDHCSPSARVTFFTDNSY
UniProt Q05397, sequence (whole entry, looked up): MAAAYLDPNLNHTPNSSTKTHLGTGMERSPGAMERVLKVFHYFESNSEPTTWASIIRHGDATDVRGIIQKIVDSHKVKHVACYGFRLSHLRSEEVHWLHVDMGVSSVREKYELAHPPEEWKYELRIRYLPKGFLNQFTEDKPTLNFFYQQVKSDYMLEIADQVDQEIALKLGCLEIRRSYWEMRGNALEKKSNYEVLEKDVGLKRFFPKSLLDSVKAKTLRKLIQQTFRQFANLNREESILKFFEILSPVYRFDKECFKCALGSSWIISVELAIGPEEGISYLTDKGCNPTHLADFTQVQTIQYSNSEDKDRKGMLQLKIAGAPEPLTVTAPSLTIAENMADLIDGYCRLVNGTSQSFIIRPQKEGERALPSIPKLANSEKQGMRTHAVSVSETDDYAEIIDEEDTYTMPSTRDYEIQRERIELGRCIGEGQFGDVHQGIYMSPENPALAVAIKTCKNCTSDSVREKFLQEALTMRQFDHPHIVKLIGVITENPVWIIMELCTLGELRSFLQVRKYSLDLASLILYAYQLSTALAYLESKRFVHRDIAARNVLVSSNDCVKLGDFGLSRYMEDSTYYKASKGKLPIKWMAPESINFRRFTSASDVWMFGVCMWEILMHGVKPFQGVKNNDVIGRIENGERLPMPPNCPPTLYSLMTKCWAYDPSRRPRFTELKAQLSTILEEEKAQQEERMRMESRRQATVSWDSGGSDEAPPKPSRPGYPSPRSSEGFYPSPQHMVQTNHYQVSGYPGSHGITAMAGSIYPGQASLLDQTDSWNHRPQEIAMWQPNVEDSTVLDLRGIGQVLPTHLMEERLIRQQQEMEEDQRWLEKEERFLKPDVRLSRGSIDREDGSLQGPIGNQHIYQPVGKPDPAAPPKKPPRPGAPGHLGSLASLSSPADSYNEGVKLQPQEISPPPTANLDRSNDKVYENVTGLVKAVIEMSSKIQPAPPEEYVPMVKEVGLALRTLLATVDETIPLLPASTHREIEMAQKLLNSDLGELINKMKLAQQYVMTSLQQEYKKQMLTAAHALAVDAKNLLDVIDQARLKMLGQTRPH
UniProt P42336, sequence (whole entry, unmodified, looked up): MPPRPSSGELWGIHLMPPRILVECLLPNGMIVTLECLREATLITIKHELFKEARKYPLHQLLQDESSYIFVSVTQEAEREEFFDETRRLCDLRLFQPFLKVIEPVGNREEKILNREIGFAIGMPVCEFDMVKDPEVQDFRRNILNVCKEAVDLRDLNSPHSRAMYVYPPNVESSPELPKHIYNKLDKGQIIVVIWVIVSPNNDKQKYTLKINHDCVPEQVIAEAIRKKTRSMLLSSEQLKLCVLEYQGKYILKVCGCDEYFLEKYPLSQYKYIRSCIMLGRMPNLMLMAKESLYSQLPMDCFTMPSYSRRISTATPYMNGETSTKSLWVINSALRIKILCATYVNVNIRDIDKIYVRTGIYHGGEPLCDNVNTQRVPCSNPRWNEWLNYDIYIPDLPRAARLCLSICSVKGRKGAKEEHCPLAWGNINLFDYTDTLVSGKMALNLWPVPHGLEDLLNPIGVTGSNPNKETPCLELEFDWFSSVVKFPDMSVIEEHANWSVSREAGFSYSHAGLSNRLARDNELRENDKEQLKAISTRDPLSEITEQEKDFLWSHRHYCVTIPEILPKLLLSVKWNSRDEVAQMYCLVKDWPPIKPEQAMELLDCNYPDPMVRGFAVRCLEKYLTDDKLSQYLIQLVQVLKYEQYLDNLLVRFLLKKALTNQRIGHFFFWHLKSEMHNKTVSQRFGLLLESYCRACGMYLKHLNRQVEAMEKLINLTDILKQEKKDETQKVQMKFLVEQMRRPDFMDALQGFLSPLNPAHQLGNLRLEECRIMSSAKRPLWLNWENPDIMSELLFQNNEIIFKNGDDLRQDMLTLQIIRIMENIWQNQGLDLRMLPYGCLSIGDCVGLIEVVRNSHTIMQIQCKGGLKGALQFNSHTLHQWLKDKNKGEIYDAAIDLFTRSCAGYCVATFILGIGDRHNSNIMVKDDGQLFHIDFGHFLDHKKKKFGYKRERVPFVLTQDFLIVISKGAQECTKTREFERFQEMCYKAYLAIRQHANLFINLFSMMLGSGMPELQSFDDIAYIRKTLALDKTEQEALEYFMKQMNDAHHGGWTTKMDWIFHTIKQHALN

Sample 1 — read-out: cell-free assay; technique: competition with immobilised ligand; concentration: 1 µM; endpoint: remaining binding
SMILES: O=C1NC(c2ccccn2)Sc2ccccc21 (stereo not drawn)
target = Focal adhesion kinase 1 (PTK2, Homo sapiens, UniProt Q05397); value = 79%
target = Vascular endothelial growth factor receptor 3 (FLT4, Homo sapiens, UniProt P35916); value = 70%
target = Tyrosine-protein kinase receptor TYRO3 (TYRO3, Homo sapiens, UniProt Q06418); value = 76%
target = Phosphatidylinositol 4,5-bisphosphate 3-kinase catalytic subunit alpha isoform (PIK3CA, Homo sapiens, UniProt P42336, H1047L); value = 59%

Sample 2 — organism: Sarcocystis neurona; read-out: parasite growth; concentration: 10 µM; notes: secondary screen; endpoint: inhibition
Structure (SMILES) = O=C1CN(/N=C/c2ccc(-c3ccc([N+](=O)[O-])cc3)o2)C(O)=N1; value = 48.3%
Structure (SMILES) = Cc1nccn1CC1CCc2c(c3ccccc3n2C)C1=O (stereo not drawn); value = -35.5%
Structure (SMILES) = NC1CCN(c2nc3c(cc2F)c(=O)c(C(=O)O)cn3-c2ccc(F)cc2F)C1 (stereo not drawn); value = -0.138%
Structure (SMILES) = Cc1[nH]cnc1CN1CCc2c(c3ccccc3n2C)C1=O; value = -53.9%

Sample 3 — read-out: enzyme activity; mode: inhibitor; concentration: 0.5 µM; reference: control; endpoint: remaining activity
Target: Protein kinase C delta type (PRKCD, Homo sapiens, UniProt Q05655)
UniProt Q05655, sequence (whole entry, looked up): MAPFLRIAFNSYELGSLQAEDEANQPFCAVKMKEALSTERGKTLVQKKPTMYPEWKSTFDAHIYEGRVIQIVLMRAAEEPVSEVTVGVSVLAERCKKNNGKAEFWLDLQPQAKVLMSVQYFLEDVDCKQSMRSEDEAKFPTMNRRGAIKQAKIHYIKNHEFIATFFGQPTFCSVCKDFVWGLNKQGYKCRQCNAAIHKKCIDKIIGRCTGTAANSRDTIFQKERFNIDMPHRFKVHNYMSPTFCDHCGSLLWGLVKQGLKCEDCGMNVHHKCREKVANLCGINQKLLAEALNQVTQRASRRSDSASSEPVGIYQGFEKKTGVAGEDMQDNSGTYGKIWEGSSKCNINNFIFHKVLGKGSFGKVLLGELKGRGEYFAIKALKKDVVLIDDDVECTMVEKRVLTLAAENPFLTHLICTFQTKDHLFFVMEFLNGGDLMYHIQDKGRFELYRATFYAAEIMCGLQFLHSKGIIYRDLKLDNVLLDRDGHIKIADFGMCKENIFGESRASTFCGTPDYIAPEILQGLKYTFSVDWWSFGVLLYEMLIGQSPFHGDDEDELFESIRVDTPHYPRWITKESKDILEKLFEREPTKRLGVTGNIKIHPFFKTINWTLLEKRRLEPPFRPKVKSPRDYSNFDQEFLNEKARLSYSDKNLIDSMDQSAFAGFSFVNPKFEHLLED
Structure (SMILES) = Cn1sc(=O)n(Cc2ccccc2)c1=O; value = 94.1%
Structure (SMILES) = CO[C@H]1C[C@@H]2CC[C@@H](C)[C@@](O)(O2)C(=O)C(=O)N2CCCC[C@H]2C(=O)O[C@H]([C@H](C)C[C@@H]2CC[C@@H](O)[C@H](OC)C2)CC(=O)[C@H](C)/C=C(\C)[C@@H](O)[C@@H](OC)C(=O)[C@H](C)C[C@H](C)/C=C/C=C/C=C/1C; value = 102%
Structure (SMILES) = Cc1cccc(-c2[nH]c(C(C)(C)C)nc2-c2ccc3c(c2)OCO3)n1; value = 104%
Structure (SMILES) = COc1ccc(CNC(=O)Nc2ncc([N+](=O)[O-])s2)cc1; value = 100%
Structure (SMILES) = COc1cc2ncnc(Nc3ccc(F)c(Cl)c3)c2cc1OCCCN1CCOCC1; value = 106%
Structure (SMILES) = Nc1ccc2ncnc(NCCc3ccc(Oc4ccccc4)cc3)c2c1; value = 97.6%
Structure (SMILES) = CC(C)[C@H](CO)Nc1nc(Nc2cc(N)cc(Cl)c2)c2ncn(C(C)C)c2n1; value = 87.6%
Structure (SMILES) = O=C1NC(=O)C(c2cn(CCCn3ccnc3)c3ccccc23)=C1Nc1ccccc1; value = 19.3%
Structure (SMILES) = Cc1ccc(NC(=O)c2ccc(CN3CCN(C)CC3)cc2)cc1Nc1nc(-c2cccnc2)cs1; value = 97.9%
Structure (SMILES) = CCOC(=O)c1c(C)[nH]c(/C=C2\C(=O)Nc3ccccc32)c1C; value = 91.6%
Structure (SMILES) = O=c1c2ccccc2[nH]c(=S)n1CCN1CCC(=C(c2ccc(F)cc2)c2ccc(F)cc2)CC1; value = 95.7%

Sample 4 — cell line: mouse MPNST tumor cells; technique: high-content nuclear imaging; refers to: cell number; concentration: 10 µM; time: 12 h; notes: mean of 2 replicates; reference: plate mean; direction: higher = more cells; endpoint: nuclei count
Structure (SMILES) = CC(C)C[C@H](NC(=O)[C@H](Cc1ccccc1)NC(=O)c1cnccn1)B(O)O; value = -5.71 z-score
Structure (SMILES) = CN1C(=O)CC(c2ccccc2)C1=O (stereo not drawn); value = -0.246 z-score and 3.11 z-score
Structure (SMILES) = CCCCNc1ccc(C(=O)OCCN(C)C)cc1; value = 2.3 z-score
Structure (SMILES) = CSc1nc2ccc3nc(NC(=O)C(c4ccccc4)c4ccccc4)sc3c2s1; value = 0.819 z-score
Structure (SMILES) = CCCCCCCCc1ccc(CCC(N)(CO)CO)cc1; value = -4.95 z-score

Excerpt of the above (sample 3):
Structure (SMILES) = COc1ccc(CNC(=O)Nc2ncc([N+](=O)[O-])s2)cc1; value = 100%
Structure (SMILES) = COc1cc2ncnc(Nc3ccc(F)c(Cl)c3)c2cc1OCCCN1CCOCC1; value = 106%
Structure (SMILES) = Nc1ccc2ncnc(NCCc3ccc(Oc4ccccc4)cc3)c2c1; value = 97.6%
